Results pooled from the literature.
Each numbered part is a random draw from the data of one study; scales do not carry over between parts.
Chain of UniProt Q9Y5S2 (whole entry, looked up): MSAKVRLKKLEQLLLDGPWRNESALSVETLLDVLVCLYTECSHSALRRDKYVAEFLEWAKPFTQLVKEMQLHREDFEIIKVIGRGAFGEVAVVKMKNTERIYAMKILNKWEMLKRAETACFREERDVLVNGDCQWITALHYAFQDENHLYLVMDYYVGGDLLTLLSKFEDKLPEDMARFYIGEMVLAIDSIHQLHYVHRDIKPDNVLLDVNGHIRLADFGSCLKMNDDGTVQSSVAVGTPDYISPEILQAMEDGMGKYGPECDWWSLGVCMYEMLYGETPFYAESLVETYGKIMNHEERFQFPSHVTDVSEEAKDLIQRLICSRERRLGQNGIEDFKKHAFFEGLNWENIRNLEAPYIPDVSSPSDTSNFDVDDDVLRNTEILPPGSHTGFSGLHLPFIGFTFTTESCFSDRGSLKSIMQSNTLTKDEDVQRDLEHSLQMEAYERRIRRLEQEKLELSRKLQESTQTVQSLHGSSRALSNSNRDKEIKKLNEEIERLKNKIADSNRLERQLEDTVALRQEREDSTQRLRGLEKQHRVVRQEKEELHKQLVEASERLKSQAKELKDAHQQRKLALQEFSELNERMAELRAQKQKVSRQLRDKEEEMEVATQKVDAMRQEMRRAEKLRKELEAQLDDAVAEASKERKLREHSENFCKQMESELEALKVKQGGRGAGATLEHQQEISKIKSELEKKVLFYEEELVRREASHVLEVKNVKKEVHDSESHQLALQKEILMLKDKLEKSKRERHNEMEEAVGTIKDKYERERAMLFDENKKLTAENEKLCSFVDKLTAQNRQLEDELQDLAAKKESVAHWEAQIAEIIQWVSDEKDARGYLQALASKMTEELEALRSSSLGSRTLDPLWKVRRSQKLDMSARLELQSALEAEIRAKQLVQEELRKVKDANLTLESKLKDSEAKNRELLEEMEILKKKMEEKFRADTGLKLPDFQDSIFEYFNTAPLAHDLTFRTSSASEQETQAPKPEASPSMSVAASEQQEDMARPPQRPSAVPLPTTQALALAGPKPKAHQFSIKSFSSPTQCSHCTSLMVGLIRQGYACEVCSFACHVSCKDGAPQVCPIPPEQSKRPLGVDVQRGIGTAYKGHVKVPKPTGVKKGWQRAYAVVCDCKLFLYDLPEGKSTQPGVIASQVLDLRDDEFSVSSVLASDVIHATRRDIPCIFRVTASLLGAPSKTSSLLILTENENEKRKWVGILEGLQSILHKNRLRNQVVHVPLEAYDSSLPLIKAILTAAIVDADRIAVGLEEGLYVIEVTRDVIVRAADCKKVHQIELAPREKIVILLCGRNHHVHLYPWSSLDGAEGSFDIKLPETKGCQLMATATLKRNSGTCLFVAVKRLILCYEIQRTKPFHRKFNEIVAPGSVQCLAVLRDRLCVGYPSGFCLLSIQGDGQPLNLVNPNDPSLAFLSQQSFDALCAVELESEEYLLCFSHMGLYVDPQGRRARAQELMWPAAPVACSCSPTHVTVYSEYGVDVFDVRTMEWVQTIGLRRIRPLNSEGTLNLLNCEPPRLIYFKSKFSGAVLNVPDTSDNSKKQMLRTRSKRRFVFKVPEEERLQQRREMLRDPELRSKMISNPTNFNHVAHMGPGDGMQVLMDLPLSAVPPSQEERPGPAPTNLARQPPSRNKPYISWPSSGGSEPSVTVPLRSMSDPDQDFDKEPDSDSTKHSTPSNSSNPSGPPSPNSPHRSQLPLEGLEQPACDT
Chain of UniProt P41595 (whole entry, looked up): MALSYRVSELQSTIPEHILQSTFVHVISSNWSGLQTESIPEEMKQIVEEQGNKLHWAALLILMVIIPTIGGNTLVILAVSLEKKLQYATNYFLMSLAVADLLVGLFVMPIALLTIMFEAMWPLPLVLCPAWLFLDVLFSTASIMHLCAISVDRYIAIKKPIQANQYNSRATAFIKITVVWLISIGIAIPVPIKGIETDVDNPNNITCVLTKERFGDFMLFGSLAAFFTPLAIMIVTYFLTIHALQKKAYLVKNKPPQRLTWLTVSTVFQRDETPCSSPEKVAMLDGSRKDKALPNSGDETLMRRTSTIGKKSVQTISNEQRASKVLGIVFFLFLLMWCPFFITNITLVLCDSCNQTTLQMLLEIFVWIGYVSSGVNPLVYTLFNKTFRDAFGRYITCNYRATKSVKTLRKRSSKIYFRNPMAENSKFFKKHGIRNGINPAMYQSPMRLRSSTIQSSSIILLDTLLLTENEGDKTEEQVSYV
Chain of UniProt Q5BJF2 (whole entry, looked up): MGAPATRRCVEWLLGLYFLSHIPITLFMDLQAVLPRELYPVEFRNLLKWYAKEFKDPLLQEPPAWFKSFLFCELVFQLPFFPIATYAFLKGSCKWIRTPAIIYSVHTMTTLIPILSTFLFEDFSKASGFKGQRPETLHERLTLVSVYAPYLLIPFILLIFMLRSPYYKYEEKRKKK

Block 1
Target: Serine/threonine-protein kinase 4 (STK4, Homo sapiens, UniProt Q13043)
Observed: enzyme activity
Action: inhibitor
Concentration: 0.5 µM
Baseline: control
Endpoint: remaining activity
Target sequence (Q13043 1-487): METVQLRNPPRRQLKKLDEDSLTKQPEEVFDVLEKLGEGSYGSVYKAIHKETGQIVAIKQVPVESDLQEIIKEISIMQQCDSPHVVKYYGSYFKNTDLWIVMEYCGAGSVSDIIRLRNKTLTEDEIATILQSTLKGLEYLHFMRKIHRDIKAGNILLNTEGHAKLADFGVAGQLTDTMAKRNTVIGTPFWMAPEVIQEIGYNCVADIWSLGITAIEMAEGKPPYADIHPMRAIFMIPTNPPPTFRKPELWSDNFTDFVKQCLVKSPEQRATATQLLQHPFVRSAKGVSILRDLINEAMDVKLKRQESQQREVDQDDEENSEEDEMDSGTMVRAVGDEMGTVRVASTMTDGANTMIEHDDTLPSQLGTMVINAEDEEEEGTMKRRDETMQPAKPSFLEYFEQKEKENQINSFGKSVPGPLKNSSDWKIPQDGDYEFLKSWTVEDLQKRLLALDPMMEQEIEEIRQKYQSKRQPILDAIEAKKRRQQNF
Cc1ccc(NC(=O)c2ccc(CN3CCN(C)CC3)cc2)cc1Nc1nc(-c2cccnc2)cs1: 101%
CO[C@H]1C[C@@H]2CC[C@@H](C)[C@@](O)(O2)C(=O)C(=O)N2CCCC[C@H]2C(=O)O[C@H]([C@H](C)C[C@@H]2CC[C@@H](O)[C@H](OC)C2)CC(=O)[C@H](C)/C=C(\C)[C@@H](O)[C@@H](OC)C(=O)[C@H](C)C[C@H](C)/C=C/C=C/C=C/1C: 106%
O=C(O)c1ccc2c3c1cccc3c(=O)n1c3ccccc3nc21: 93.3%
Cc1nc(-c2ccccc2)c(-c2ccncc2)o1: 104%
CCOC(=O)c1c(C)[nH]c(/C=C2\C(=O)Nc3ccccc32)c1C: 83.4%
COc1cc2nccc(Oc3ccc(NC(=S)NC(=O)c4ccccc4C)cc3)c2cc1OC: 95.6%
CNC(=O)c1cc(Oc2ccc(NC(=O)Nc3ccc(Cl)c(C(F)(F)F)c3)cc2)ccn1: 101%
O=C1NC(=O)C(c2cn(CCCO)c3ncccc23)=C1c1cnccn1: 83.6%
O=S(=O)(c1cccc2cnccc12)N1CCCNCC1: 94.8%
OCC(O)CCON=C1C(c2c(O)[nH]c3ccccc23)=Nc2ccccc21 (centres unmarked): 8.29%
O=c1c2ccccc2[nH]c(=S)n1CCN1CCC(=C(c2ccc(F)cc2)c2ccc(F)cc2)CC1: 103%
Oc1ccc(-c2nc(-c3ccncc3)c(-c3ccc(F)cc3)[nH]2)cc1: 105%
N#CC(C#N)=C(N)/C(C#N)=C/c1ccc(O)cc1: 99.1%
COc1ccc(OC)c2c(=S)c3ccccc3[nH]c12: 96.8%
O=C(Nc1cccc(Nc2cc(Nc3cccc(C(F)(F)F)c3)ncn2)c1)C1CC1: 99%
O=C(CCCc1ccc(-c2ccccc2F)cc1)Nc1ccc(O)cc1: 95%

Block 2
Target: PABPC1L2, full length, GST fusion (mouse, UniProt A0ABA7IW68)
Method: RNAcompete
Form: RNA
Matrix: in vitro
Concentration: 20 nM
Setting: 7-mer, probes averaged, single round
Baseline: mean of 7-mers
Reading: higher = stronger binding
Endpoint: 7-mer Z-score
Target sequence (chain): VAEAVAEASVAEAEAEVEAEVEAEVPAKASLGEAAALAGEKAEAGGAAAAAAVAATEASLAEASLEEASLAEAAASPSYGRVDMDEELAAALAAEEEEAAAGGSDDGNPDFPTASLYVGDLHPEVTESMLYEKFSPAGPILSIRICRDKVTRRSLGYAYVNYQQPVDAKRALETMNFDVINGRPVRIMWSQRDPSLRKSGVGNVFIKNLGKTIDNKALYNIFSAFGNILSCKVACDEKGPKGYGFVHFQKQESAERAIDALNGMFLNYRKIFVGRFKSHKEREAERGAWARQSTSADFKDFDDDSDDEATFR
UAGACUC: -0.302
UAGAAGC: -0.0246
UCAUAUA: -0.0935
GCUCUUG: -0.322
GGCCAUC: -0.0808
UAUCCUC: -0.383
GACGACG: -0.00652
CCGAUUC: -0.402

Block 3
Target: Prothrombin, mature alpha-thrombin (F2, Homo sapiens, UniProt P00734)
Method: aptamer microarray, sandwich
Form: DNA with 2'F-ANA
Matrix: in vitro
Concentration: 200 nM
Setting: whole 15-mer aptamer, many near background
With: Cy3 exosite-II aptamer, 400 nM
Reading: higher = stronger binding
Endpoint: mean fluorescence intensity
Sequence: GGTTGGTGTGGTTGG
2'F-ANA at 3 4 5 6 8 13 14 15: 79.9 a.u.
2'F-ANA at 1 3 5 7 8 9 14: 51.5 a.u.
2'F-ANA at 2 6 7 11 12 15: 463 a.u.
2'F-ANA at 2 3 5 8 9 10 11 15: 59 a.u.
2'F-ANA at 1 3 4 6 7 12 13: 279 a.u.
2'F-ANA at 1 3 4 6 10 12 13: 70.7 a.u.
2'F-ANA at 1 3 4 7 8 12 14: 114 a.u.
2'F-ANA at 1 2 3 6 9 11 13 14: 60.1 a.u.

Other studies, line by line
Observed: cell-free assay
CS(=O)(=O)c1cc(C2(NC(=O)c3cncc4c3cnn4-c3ccc(F)cc3)CC2)ccn1 — inhibition (Sigma intracellular receptor 2 (TMEM97, Homo sapiens, UniProt Q5BJF2); 10 µM): 9.02%
CS(=O)(=O)NCC[C@H](NC(=O)c1cncc2c1cnn2-c1ccc(F)cc1)c1ccnc(S(C)(=O)=O)c1 — remaining binding (Serine/threonine-protein kinase MRCK beta (CDC42BPB, Homo sapiens, UniProt Q9Y5S2); competition with immobilised ligand; 1 µM): 95%
Cc1c(N2CCCC2)nc2ccc(Br)cc2c1C(=O)NC[C@H](CCC(=O)O)c1ccccc1Cl — inhibition (5-hydroxytryptamine receptor 2B (HTR2B, Homo sapiens, UniProt P41595); 10 µM): 5.5%
